Published values pooled from the literature.
Every numbered part comes from another study and shows a few of its results, in no order.

Set 1
Target: Replicase polyprotein 1ab, nsp13 helicase (rep, Severe acute respiratory syndrome coronavirus 2, UniProt P0DTD1)
Mode: inhibitor
Tested at: 20 µM
| SMILES | inhibition [%] |
| --- | --- |
| COC(=O)c1ccc2c(c1)NC(=O)/C2=C(\Nc1ccc(N(C)C(=O)CN2CCN(C)CC2)cc1)c1ccccc1 | 0.28 |
| Cc1csc(-c2nnc(Nc3ccc(Oc4ncccc4-c4ccnc(N)n4)cc3)c3ccccc23)c1 | 7.45 |
| CCOC(=O)Nc1ccc2c(c1)N(C(=O)CN(C)C)c1ccccc1CC2 | 2.28 |
| COC(=O)N[C@H](C(=O)N1CC2(CC2)C[C@H]1c1nc(-c2ccc3c(c2)C(F)(F)c2cc(-c4ccc5[nH]c([C@@H]6[C@H]7CC[C@H](C7)N6C(=O)[C@@H](NC(=O)OC)C(C)C)nc5c4)ccc2-3)c[nH]1)C(C)C | -1.57 |
| Cc1cccc(-c2[nH]ncc2-c2ccc3ncccc3n2)n1 | 1.32 |
| COc1ccc(CCN(C)CCc2ccc(OC)c(OC)c2)cc1OC | -0.87 |
| Nc1cc(C(Cl)=C(Cl)Cl)c(S(N)(=O)=O)cc1S(N)(=O)=O | 2.8 |
| COc1cc(Oc2ccnc3cc(OC)c(OC)cc23)ccc1NC(=O)NC(C)c1nccs1 (centres unmarked) | 7.57 |
| Cn1ncnc1COc1nn2c(-c3c(F)cccc3F)nnc2cc1C1CCC1 | -3.25 |
| CNC(=O)N(C)N=O | 1.53 |
| CCC(=O)O[C@@H]1CC(=O)O[C@H](C)C/C=C/C=C/[C@H](O)[C@H](C)C[C@H](CC=O)[C@H](O[C@@H]2O[C@H](C)[C@@H](O[C@H]3C[C@@](C)(O)[C@@H](OC(=O)CC)[C@H](C)O3)[C@H](N(C)C)[C@H]2O)[C@H]1OC | -0.82 |
| C[C@H](Nc1cc(-c2cnn(C)c2)cc(Nc2cnccn2)n1)c1ccc(F)cc1 | 5.62 |
| CCCN(CCC)C(=O)C1=Cc2ccc(-c3ccc(C(=O)N4CCCC4)cc3)cc2N=C(N)C1 | 7.44 |
| COCCNC(=O)COc1ccc(OCCNC[C@H](O)COc2ccccc2)cc1 | -0.57 |
| CC(=O)Nc1cccc(Nc2ncnc(N3CCC(OCc4ccc(OC(F)(F)F)cc4)CC3)n2)c1C | 8.85 |
| CC(C)(C)c1ccc2cc(C#N)c(C#N)cc2c1 | 6.19 |
| O=Nc1c(O)[nH]c2c(Cl)c(Cl)ccc12 | 9.42 |
| C[C@H](c1ccc(F)cc1CCCC(=O)O)N(c1cc(F)ccc1F)S(=O)(=O)c1ccc(Cl)cc1 | 4.28 |
| CSc1ccc2c(c1)C(N1CCN(C)CC1)Cc1ccccc1S2 (centres unmarked) | 7.91 |
| O=C(NC(=O)c1c(F)cccc1F)Nc1cc(Cl)c(OC(F)(F)C(F)C(F)(F)F)cc1Cl (centres unmarked) | 2.77 |
| COc1ccccc1N1CCN(CC(O)COc2cc(OC)c(OC)c(OC)c2)CC1 (centres unmarked) | -1.18 |

Set 2
Target: Sal-like protein 4, full length isoform A (SALL4, Homo sapiens, UniProt Q9UJQ4, residues 1-1053)
Sequence of UniProt Q9UJQ4 (whole entry, looked up): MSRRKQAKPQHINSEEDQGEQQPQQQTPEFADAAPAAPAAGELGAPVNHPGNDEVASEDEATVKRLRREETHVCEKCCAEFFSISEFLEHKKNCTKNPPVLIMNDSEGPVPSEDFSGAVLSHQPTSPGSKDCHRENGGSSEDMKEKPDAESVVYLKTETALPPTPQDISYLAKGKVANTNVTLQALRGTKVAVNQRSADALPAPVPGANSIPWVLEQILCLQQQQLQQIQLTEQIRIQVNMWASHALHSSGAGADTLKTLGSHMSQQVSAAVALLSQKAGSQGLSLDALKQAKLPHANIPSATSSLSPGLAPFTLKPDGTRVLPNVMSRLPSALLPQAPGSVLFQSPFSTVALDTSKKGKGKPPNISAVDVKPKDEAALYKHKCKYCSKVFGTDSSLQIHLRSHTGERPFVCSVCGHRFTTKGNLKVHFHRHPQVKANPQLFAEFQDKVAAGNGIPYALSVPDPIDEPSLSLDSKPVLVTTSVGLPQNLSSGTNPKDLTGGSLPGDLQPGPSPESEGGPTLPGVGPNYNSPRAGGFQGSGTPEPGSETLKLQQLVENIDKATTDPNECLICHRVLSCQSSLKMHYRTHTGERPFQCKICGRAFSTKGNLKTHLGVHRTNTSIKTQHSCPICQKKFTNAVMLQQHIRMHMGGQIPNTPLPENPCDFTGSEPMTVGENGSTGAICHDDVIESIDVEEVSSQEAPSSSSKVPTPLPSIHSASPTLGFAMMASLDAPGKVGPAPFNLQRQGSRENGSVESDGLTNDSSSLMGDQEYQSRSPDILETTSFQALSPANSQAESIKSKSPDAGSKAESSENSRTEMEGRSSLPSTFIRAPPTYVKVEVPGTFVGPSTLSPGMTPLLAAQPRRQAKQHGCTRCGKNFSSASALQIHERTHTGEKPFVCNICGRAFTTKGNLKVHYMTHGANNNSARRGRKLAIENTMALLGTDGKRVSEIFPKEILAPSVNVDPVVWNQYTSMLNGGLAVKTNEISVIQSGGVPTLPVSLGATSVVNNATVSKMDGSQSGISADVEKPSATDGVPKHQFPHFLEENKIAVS
Technique: universal PBM
Form: double-stranded DNA, one strand shown
Matrix: in vitro
Tested at: 600 nM
Notes: 8-mer, flanks averaged, mean of replicates
Reading: higher = stronger binding
| Sequence | E-score |
| --- | --- |
| CGCACCCC | -0.289 |
| TGATCAAA | 0.085 |
| TCTGAGAA | 0.145 |
| GCTTGACA | -0.0174 |
| AGAAGCTG | -0.125 |
| AATCTGGG | -0.0973 |
| CCGAGCTA | -0.192 |
| GCCAGGTA | -0.257 |

Set 3
Target: Histone acetyltransferase KAT6A, both winged helices, GST fusion (KAT6A, Homo sapiens, UniProt Q92794, residues 1-181)
Technique: protein binding microarray
Form: double-stranded DNA, one strand shown
Matrix: in vitro
Tested at: not given
Notes: 8-mer, flanks averaged, mean of 2 arrays, mostly near background
Reference: not given
Reading: higher = stronger binding
Target sequence (chain): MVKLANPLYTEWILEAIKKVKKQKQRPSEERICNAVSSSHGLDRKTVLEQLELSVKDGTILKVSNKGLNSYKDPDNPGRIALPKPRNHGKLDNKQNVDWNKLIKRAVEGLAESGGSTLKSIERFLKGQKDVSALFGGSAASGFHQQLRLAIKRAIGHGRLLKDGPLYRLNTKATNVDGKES
| Sequence | E-score |
| --- | --- |
| TAGGGAAA | -0.151 |
| CAAAACCG | 0.105 |
| ATTTCTCC | -0.0344 |
| CCTAATCC | -0.112 |
| CGTGTTAC | 0.164 |
| ATAACATG | 0.0972 |
| TACAGAAA | -0.0745 |
| CAGCGTAA | 0.1 |

Set 4
Target: Interferon regulatory factor 7, full length, phosphomimetic (IRF7, Homo sapiens, UniProt Q92985, residues 1-503, S471D/S472D/S475D/S476D/S477D/S483D/S484D/S487D)
Sequence of UniProt Q92985 (whole entry, unmodified, looked up): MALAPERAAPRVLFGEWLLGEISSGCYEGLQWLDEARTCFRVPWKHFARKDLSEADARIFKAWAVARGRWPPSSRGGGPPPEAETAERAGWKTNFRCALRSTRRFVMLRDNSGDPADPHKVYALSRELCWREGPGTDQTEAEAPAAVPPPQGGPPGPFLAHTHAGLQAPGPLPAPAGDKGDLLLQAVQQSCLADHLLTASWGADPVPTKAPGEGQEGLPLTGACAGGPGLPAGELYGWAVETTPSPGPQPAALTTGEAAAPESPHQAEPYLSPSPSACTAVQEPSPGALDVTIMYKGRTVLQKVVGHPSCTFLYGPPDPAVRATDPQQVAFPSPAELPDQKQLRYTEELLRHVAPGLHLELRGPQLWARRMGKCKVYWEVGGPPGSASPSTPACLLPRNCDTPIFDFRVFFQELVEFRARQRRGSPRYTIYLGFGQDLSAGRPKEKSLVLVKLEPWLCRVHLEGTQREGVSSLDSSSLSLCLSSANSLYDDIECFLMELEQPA
Technique: protein-binding microarray
Form: double-stranded DNA, one strand shown
Matrix: in vitro
Tested at: 2200 nM top
Notes: 60-bp whole probe
With: salmon DNA 0.4 mg/ml
Reference: random background probes
Reading: higher = stronger binding
All sequences stand within: GCCTAGCAC … GTCTTGATTCGCTTGACGCTGCTG
| Sequence | fitted relative affinity |
| --- | --- |
| GACGATATCGGGCTTCGAGACGTGCTA | -0.301 z-score |
| AGAGTGCTCATGCTTCTTAGGGTGCTA | -0.402 z-score |
| TCAGATTTCAGTTCCGATTAGTGCTAG | 2.43 z-score |
| GACGGACGGCTTATCCTGACGTGCTAG | -0.33 z-score |
| ACAACTAGGGAATTTAGAAAAGTGCTA | -1.26 z-score |
| GACGATATCAGTTTCGATACGTGCTAG | 5.26 z-score |
| TCATGTGTAGGTCTTAAACTGTGCTAG | -0.0683 z-score |
| TTAGGTTTCGAATTTCGGTTAGTGCTA | 5.96 z-score |

Mixed results
Target: Replicase polyprotein 1ab, 3C-like proteinase (rep, Middle East respiratory syndrome-related coronavirus, UniProt K9N7C7)
Effect on: enzyme activity
Tested at: 10 µM
| Compound | assay | test system | inhibition |
| --- | --- | --- | --- |
| CC(=O)OC[C@H]1O[C@@H]([S-])[C@H](OC(C)=O)[C@@H](OC(C)=O)[C@@H]1OC(C)=O.CCP(CC)CC.[Au+] | inhibitor | MERS-CoV | 27% |
| NC(CO)C(=O)NNCc1ccc(O)c(O)c1O (centres unmarked) | – | – | 9% |
